Assay results of several laboratories.
Every numbered part comes from another study and shows a few of its results, in no order. Changes are numbered by the printed parent chain.

Study 1 — target: CCNF, cyclin fold, Cln2 fusion (human); method: yeast growth competition, sequencing; sample: yeast; notes: strong parent motif; relative to: not given; direction: higher = stronger binding
Parent: E2F1 docking peptide (human); PPVKRRLDFETDH
Change | normalised enrichment score
R5K | 6.97
L7G | -0.321
L7F | 0.199
P2F | 7.83
F9D | -0.0444
R5D | -0.176
V3D | 1.03
L7M | 1.22

Study 2 — method: RNA Bind-n-Seq; form: RNA; sample: in vitro; concentration: 365 nM; relative to: no-protein control; direction: higher = stronger binding
Target: RNA binding protein fox-1 homolog 2, RRM domain, GST-SBP tag (RBFOX2, Homo sapiens, UniProt O43251-10, residues 100-194)
Notes: natural RNA segment, single round, ends assumed
All sequences stand within: GGGAGUUCUACAGUCCGACGAUC … UGGAAUUCUCGGGUGCCAA
Target sequence (chain): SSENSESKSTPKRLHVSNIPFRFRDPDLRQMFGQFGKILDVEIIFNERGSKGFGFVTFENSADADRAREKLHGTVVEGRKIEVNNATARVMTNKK
Sequence | RBNS enrichment (R)
UCCACCACCAAGCCUGGGGACUUCGCCCCAACAAAAUUGUAAACGUUGUUAGGUUUUCGUGUAAGACUCUUGCUGUAUCGUGACAGCUGUGAUUGGUGAGUUGACCGUCC | 0.274
GUGGCCACUUAUUAUUACCUAAAGAAAACAUUUGUUCCCUGUUCAUUUUAUUUUAGGGGCCAGAUCUAACAUUGUAGUGUCUUUCACCAGAUAGACUUCUACUGUUUCAU | 0.26
UUUUAAUAUGUGGACGCUGCAAAAAAUGUGUUUAAAUUAUCUUUUUUAAGAUGAAUUAAGGACUAUUAGCUCGAACUUCGAUGCAGAGUUUGUAAAUAAGGGUGUCUGUG | 0.335
UUACUUCUGAAAUGAAGGGAAAAAAACCACCCCAUCGUUCCCUACUCCUCCCCACCACUUACCCGUUCCCCCUUUACCUAAUCUAGUAGAUUAGCCAUCUUUCAAAUUCA | 0.785
UCACUCUCUGAAGCACACAUCAUUGGCUUUCCUAUUUUUCUGUUCAUUUUUUAAUUGAGCAAAUGUCUAUUGAACACUUAAAAUUAAUUAGAAUGUGGUAAUGGACAUAU | 0.502
GCUUGCUGGAAGGGUAGUAUUAACUAUUUAACAUGUAAUGGUGUACUUCACUCUUACCUAGCACGCUGUCUUCUCAUUGCUUUGGGGGAGGGAGGGUCUCUCUGCUGGCA | 1.02
ACUUGGUACCAUCCCUGGGCUCUGCUGGCGAGACGAAACAGCUGUAGAGAUGAAAACAGGCUGCAGAGGCUGGCACAGCCUGGCCGGCUUUUCUCCAUCUGGGGACAGUC | 0.542
AAGGGAUUAUCACAGCGCAAUCAUUGUCUACAACAACGUGUACACUCAAUGCCUGGGUUACAUAGGAAAUGCACCCUGAGGUUUUAAUAAAGCCCCUAUGGCUAUAACUU | 0.422
CAGCCACCUGCCUUUGAGUCAUCAAGAUGCCUCUGCAGCCACAAUUCUGACCUAAGUGGCAGGGCCCAGAAAUCCUGAAAACCUCCCGCUGCCUUUUGUGAUACUUCCUG | 0.862

Study 3 — method: protein-binding microarray; form: double-stranded DNA, one strand shown; sample: in vitro; concentration: 0.8 µM; notes: whole 60-bp probe, no competitor; direction: higher = stronger binding; all sequences stand within: … GTCTTGATTCGCTTGACGCTGCTG
Target: Centromere-binding protein 1, full length, N-terminal tag (CBF1, Saccharomyces cerevisiae, UniProt P17106, residues 1-351)
Chain of UniProt P17106 (whole entry, looked up): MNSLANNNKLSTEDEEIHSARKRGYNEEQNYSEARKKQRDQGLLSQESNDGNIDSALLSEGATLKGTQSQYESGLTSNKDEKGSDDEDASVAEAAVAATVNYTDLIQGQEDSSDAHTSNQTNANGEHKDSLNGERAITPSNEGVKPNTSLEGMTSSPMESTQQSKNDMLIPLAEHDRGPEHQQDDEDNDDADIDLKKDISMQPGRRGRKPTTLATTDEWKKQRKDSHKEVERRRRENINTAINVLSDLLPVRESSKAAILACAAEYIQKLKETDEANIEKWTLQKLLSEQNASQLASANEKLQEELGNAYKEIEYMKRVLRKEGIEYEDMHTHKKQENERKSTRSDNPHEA
Sequence | fluorescence intensity [a.u.]
TGTACGAAGCTATATTTCATCACTATAGTAGTTAGG | 531
GAAGTACAGAAATGATATCACATGTAAGTGATATAG | 2050
CTAGCTCAAATATACAACCTGATGAGAAAGTAATTC | 526
CTAAATGATGAAAATTCTGATGCTGGTCTCTTCTTC | 500
CTAAAAAGAAAAGGTGACATTATGCAGAACATATTC | 566
CTATGTGCTGACTCCAATGAAATAACTCTAAAATTC | 531
CTACATACACGAACCCGCGTGCGCCTGGTAAATTTC | 497

Single results of other studies
Substance | target | assay | test system | setting | how to read | endpoint | result
PhoQ, residues 284 288 289 292 302 303 TSTLRA | PhoP, residues 12 14 15 18 19 GQALL (Escherichia coli, UniProt P23836) | Sort-seq, measured: YFP reporter | E. coli | PhoQ-PhoP variant library, with: 10 µM Mg2+ | relative to: high Mg2+ state, higher = stronger signaling | fold induction | 3.24

Some of these lines once more (study 3):
Sequence | fluorescence intensity [a.u.]
CTATGTGCTGACTCCAATGAAATAACTCTAAAATTC | 531
CTACATACACGAACCCGCGTGCGCCTGGTAAATTTC | 497
